Published values of several laboratories.
Every numbered part comes from another study and shows a few of its results, in no order.

Block 1
Target: Histone acetyltransferase KAT6A, winged helix 1, GST fusion (KAT6A, Homo sapiens, UniProt Q92794, residues 1-85)
Method: protein binding microarray
Molecule type: double-stranded DNA, one strand shown
Matrix: in vitro
Concentration: not given
Notes: 8-mer, flanks averaged, mean of 2 arrays, mostly near background
Baseline: not given
Reading: higher = stronger binding
Target sequence (chain): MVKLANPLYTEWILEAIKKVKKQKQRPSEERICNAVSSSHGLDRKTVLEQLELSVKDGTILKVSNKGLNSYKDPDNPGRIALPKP
Oligonucleotide | E-score
CCGGGTAA | 0.157
AGCATGAC | -0.0631
ACTGCAGT | -0.17
AAGCTCAA | -0.282
CACACATC | -0.26
ACCATATC | -0.122
ATTTCTTA | -0.225
ACATTCCT | -0.251
CAAACCGA | 0.000495
AGGAGTAT | -0.198
GAGTGCGC | 0.348
GAAGGTAC | -0.0439
ACAAATGC | -0.109
CTTATGCA | -0.136
AGGTCCAC | -0.138
AGAGTTGA | -0.257
CGCACTAC | 0.223
CCACGTTC | -0.112
ATCAGATA | -0.141
AAGACGAC | -0.0496
TAACGTAA | -0.0373
AGTATTCA | -0.0557
GACCGGCC | 0.229
CATGCCCG | 0.302
ATTGACAC | 0.0265

Block 2
Target: RNA binding protein fox-1 homolog 2, RRM domain, GST-SBP tag (RBFOX2, Homo sapiens, UniProt O43251-10, residues 100-194)
Method: RNA Bind-n-Seq
Molecule type: RNA
Matrix: in vitro
Concentration: 365 nM
Notes: natural RNA segment, single round, ends assumed
Baseline: no-protein control
Reading: higher = stronger binding
Constant ends, left off below: GGGAGUUCUACAGUCCGACGAUC … UGGAAUUCUCGGGUGCCAA
Residues (chain): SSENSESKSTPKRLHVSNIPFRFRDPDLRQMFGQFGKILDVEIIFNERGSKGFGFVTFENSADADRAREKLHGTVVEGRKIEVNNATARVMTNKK
Oligonucleotide | RBNS enrichment (R)
ACAGUUGCAUGUUCAACUUGUCAUAGCUGGAAUUACUGUAUAAAAAGAACUGAUUGUGACUUGUAGUUCUUCUCUAGAGGAUGCUGCUAGAACGUGGUUUUGCUUUGCAU | 6.3
CAGGCCCUCAAGCCCAAGAGCCAUCCCAGGCCUGUUCAGGCCUCAGCUAAGCCUCUCUUCAUCUGGAAGAAGAGGCAAGGGGGCAGGAGACCAGGCUCUAGCUCUGGGCC | 0.269
CACCCCUCUUCCCAGGCCUGACUUCUGAGUAGGACCCUGGGUCAGGGCUAAGUGUUGAAUUUACCCUUCCUGGUUAACACCUGUUUUGUUGGUUUUUUUAUUAUUAUUAU | 0.777
UCAGAAUCUAUAGUGGUGGCAAAGUUAGGAUAGCUCUUUAGUAAUUUGGGCCCAGUGCCUUGGUGAAGGUUGAUUAGCUUGACUGUCUUUGAAAGUAUCUGAUGGAGCUC | 0.385
CUGUCACAUCUGUGUCAUGUUGUUAUUUGAAGCAUCAGACUUUAUUACUAUGCUAGGUCCUCACUACUGCCCCCUGCAGGCUGGGGAAAGGGAACUUUUUGUCUACGCUA | 0.346
GGAACUCAUUUCCUCCUCUAUCCCCAGCCCUUCUCCUAACUAUGGUGAUAACCAGGGCCAUAGAAGACCUUUUCUCUCUUACCUUUCUCUGAUAGGAUCGUGUCCUUCAG | 0.297
AAAUUCAGACAACACACAUGGAUCCCCUUAAAACAUGUAAAUGUGUCAGAACACGGUUGACCUGCCGCCUUCUUGAACCUGGUGGCCCCCGUUGGAACUAUCAGUGGCGU | 0.358
CUAUCUGGAACUGUGUCUGUCAGACCAAUGGUACCAGGGAGGCUGCAGUGCUGCCAGCUUUUCAAGGGUCCUGACUCUGUCAGACACUUUCUGGAUUCAGCCACUAAGGA | 0.301
AGGGUCUCCCUGCCCACUGGGCUGUUCCAGACCUGUGAUACUGUGUUUGUAUGUUGAUAUCCCAUGUGUACAAAUGUGUUUACCAUUGGGGCUGGGGGUGGGUGGCUGUC | 0.75
UUUGUAUUUGGUAGUCUUAAUGUAUCUGGCAUUUGGGUGAACUGUGGACAUACUAGAGUUGAUUAUAGACACAUUGAUUUUGAAUAAGGAACUGCUGGCCGAGCCCGCUG | 1.66
GGGACAAAACUGAGCAGCAGAAUUCGUAUAGACAUUUACGUUUAAAUUCUAAAAGCCCAAUUGAGAUGUUCAGGGAGGGUUUGUUUUGCCCUUUGGCCUCAUGAAUGGGU | 0.535
UGGGUGUUUCCCACCCAAUCCUGCUCCCUGACUCCCUAGAGACUAAGAGGACUCUCCCUGACCAAGGACUAAAAAGCCUUUGGGGAUGCUGGUAUGAUGGACCAGGCAGG | 0.357

Block 3
Target: Phosphate system positive regulatory protein PHO4, full length, GST-tagged (PHO4, Saccharomyces cerevisiae, UniProt P07270, residues 1-312)
Method: competition protein-binding microarray
Molecule type: double-stranded DNA, one strand shown
Matrix: in vitro
Concentration: 2 µM
Notes: whole 60-bp probe, lowest competitor level
With: Cbf1 competitor, 0.05 µM
Reading: higher = stronger binding
Constant ends, left off below: … GTCTTGATTCGCTTGACGCTGCTG
Residues (chain): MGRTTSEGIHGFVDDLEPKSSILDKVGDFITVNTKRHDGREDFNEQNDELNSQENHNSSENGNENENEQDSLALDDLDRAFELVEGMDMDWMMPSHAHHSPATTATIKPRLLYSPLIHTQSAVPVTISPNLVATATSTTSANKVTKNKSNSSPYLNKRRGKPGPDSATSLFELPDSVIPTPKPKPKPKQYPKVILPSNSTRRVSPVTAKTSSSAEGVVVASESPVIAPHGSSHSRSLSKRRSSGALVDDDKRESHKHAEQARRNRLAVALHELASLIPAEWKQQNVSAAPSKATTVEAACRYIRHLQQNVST
Oligonucleotide | fluorescence intensity [a.u.]
GTCTTGTCTCATTTTCACGTGGGCTTCCCCACTTCA | 13500
CGTCACCAGCGTCACCACGGGGACCCGCCCCGAAAT | 10400
GCCACTCTAGACCGTCACATGTCCAATGTTTCTTTT | 8800
GCGTCGTTTGTAGCCGACGTGCTTTATTTATACGGT | 6610
GCACCCGGCCTGCGCTGCGTGCAATGACTGCGGGCG | 6790
TGTTTGCTTGATCCACACGTGTATATAAAAATGTTT | 17200
CTTCTGTAAATTTTTCACGTGACGTGAAGCGCCCCG | 10600
CTTTCCCGATCTTTTCACGTGATATTAGCACATTTG | 12000
AAAGCGGTAATTTGGCTCGTGGGTGCAGATATCTAT | 11100
GGACAGATAGATCGGCACGTGTTGAGCCAGTTGTTC | 19500
CGGATATTCTTTCTTCACGTGCATCTACTGCTTTTT | 14300
TGCGCAACAACTTGTGGCGTGGGTGTATGTCTAGAA | 6790
GCACTTCGCATTAAGCGCGTGAAACTATTGGCTCTC | 4940
GCGCGAACAAACTTGGTCATGACAGCTCCACCGGCA | 2470
TAGTATCAAAGTAGGCATGTGGGTTGATACCAACGA | 11000
CGGGGTTAAGTTTGCGCTGTGGGTGGCTTGCAGCAG | 4360
ATTTGGACAAGGTTCCACGTGAGTATGTTCGTTATT | 14700
CTTTCCCGATCTTGGGAAGTGGGTGTAGCACATTTG | 4500
CTTTCCCGATCTTGTGATGTGGGTGTAGCACATTTG | 5560

Block 4
Target: Fragile X messenger ribonucleoprotein 1, C-terminal low-complexity region (Fmr1, Mus musculus, UniProt P35922)
Method: RNA Bind-n-Seq
Molecule type: RNA
Matrix: in vitro
Concentration: 200 nM
Notes: whole 134-nt RNA, ends assumed
With: 150 mM KCl
Baseline: input library
Reading: higher = stronger binding
Constant ends, left off below: GGGAGUUCUACAGUCCGACGAUC … UGGAAUUCUCGGGUGUCAAGG
Oligonucleotide | log2 enrichment
UUUUAAAGUGUUCUCCACCACACUUGGGCAUUUAUCUGUUUCUUUAAAUGGCCUUCUCUGUUUCUUGUUUGCAGGCAGCUAUCAAUGGUG | 0.22
UGGCCCUGGUGGCAUGCGGGGAGGAAAAGGUGGCCUCAUGGAUCGUGGUGGUCCCGGUGGAAUGUUCAGAGGUGGCCGUGGUGGAGACAG | -0.0774
AAGUCCUGUGCUACACAUCGUAUGUACCGAAUCGGGAAAAAGGGAGGGAAAAAGGGAAAGUAUUAUGUUACGCCGUUCGGAUCUGCACUU | 0.477
UUCCUCAAGUCCUGUGCUACACAUCGUAUGUACCGAAUCGGCGGCGGCGGGAAAGUAUUAUGUUACGCCGUUCGGAUCUGCACUUCCAGC | -0.0183
CAAGUCCUGUGCUACACAUCGUAUGUACCGAAUCGGGAAAAGGAAAAGGAAAAGGAAAGUAUUAUGUUACGCCGUUCGGAUCUGCACUUC | -0.643
UUUCGGCUACCCCCAGUUCUUCUUUGCCAAAGCGUACACGUGAAGAGGAAGAGGAUAGCACCAUAGAAGCAUCAGACCAAGUCUCUGAUG | -1.35
AAGUCCUGUGCUACACAUCGUAUGUACCGAAUCGGUUUUUGGAAAAAAAGGAAAGGAAAGUAUUAUGUUACGCCGUUCGGAUCUGCACUU | -1.14
ACCAUGCGGGUGGGCAUCUUUGGGAAGUGGGGCAAGGGGGGGAUAGGGAGGGGGGUAACACUUUGGGAACAGGUGGUCCCAGGUCGUUUC | 0.422
ACCAUGCAGGUGGGCAUCUUUGGGAAGUGGAGCAAGGGGGGGAUAGGGAGGGGGGUAACACUUUGGGAACAGGUGGUCCCAGGUCGUUUC | 0.67
AGUCCUGUGCUACACAUCGUAUGUACCGAAUCGGAAAAAGGGAAAAAGGAAAAAGGGGAAAGUAUUAUGUUACGCCGUUCGGAUCUGCAC | -0.328
AAGUCCUGUGCUACACAUCGUAUGUACCGAAUCGGGGUUUGGGGUUUGGGUUUGGGGAAAGUAUUAUGUUACGCCGUUCGGAUCUGCACU | 0.738
AGUCCUGUGCUACACAUCGUAUGUACCGAAUCGGGAAAGGGUUUUUGGGAAAAAGGGAAAGUAUUAUGUUACGCCGUUCGGAUCUGCACU | -0.0858
UGGGAGGUGGAUUUUGUUUAUUUUUUUAGCUCAUUUCCAGGGGUGGGAAUUUUUUUUUAAUAUGUGUCAUGAAUGAAGUUGUUUUUGAAA | 0.237
ACCAUGCAGGUGGGCAUCUUUGGGAAGUGGGGCAAGGGGGGGAUAGGGAGGGGGGUAAAAAUUUGGGAACAGGUGGUCCCAGGUCGUUUC | 0.678

Block 5
Target: Sal-like protein 4, full length isoform B (SALL4, Homo sapiens, UniProt Q9UJQ4-2, residues 1-616)
Method: universal PBM
Molecule type: double-stranded DNA, one strand shown
Matrix: in vitro
Concentration: not given
Notes: 8-mer, flanks averaged, mean of replicates
Reading: higher = stronger binding
Residues (chain): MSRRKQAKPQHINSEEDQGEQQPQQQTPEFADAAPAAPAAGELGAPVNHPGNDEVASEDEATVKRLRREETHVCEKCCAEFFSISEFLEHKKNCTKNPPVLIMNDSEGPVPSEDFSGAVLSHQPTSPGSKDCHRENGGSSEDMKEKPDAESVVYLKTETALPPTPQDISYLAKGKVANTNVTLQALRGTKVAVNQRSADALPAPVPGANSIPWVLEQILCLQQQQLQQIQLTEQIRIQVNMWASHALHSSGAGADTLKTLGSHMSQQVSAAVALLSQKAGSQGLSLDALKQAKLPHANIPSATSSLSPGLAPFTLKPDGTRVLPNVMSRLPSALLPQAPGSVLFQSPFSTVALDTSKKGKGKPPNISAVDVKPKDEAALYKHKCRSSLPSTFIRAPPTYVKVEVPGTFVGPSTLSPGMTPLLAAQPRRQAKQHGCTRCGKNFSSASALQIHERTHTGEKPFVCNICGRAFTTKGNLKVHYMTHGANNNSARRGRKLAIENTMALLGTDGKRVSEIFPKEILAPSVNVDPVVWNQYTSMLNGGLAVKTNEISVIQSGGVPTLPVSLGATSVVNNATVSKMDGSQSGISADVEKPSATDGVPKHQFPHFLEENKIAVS
Oligonucleotide | E-score
ACGAAGCA | -0.019
CTTTGAGC | -0.191
GCCATCAC | -0.1
AAGACCCA | -0.173
ACACAACC | -0.0502
AGTCTCGC | -0.102
AGTGGCAA | 0.0454
CAAGTGGG | -0.128
AACGCCGG | -0.202
AGGCGTGC | -0.118
AACGAGCA | 0.00012
ATCTCTCC | -0.101
CTATGGTC | -0.0116
AGGACCTA | 0.0241
TAACAGGA | 0.174
CGACTGCG | -0.178
CAATCCAA | 0.0046
AAAGCTGG | -0.13
ACATTTCA | 0.293
CAGCCATA | 0.0435
CGTCCTAA | -0.0325
CGATGAGA | 0.0339
AGCATTAG | 0.0737
CAAGCTAA | -0.103

For quick reference, copied from above (block 3):
Oligonucleotide | fluorescence intensity [a.u.]
GCCACTCTAGACCGTCACATGTCCAATGTTTCTTTT | 8800
GCGTCGTTTGTAGCCGACGTGCTTTATTTATACGGT | 6610
GCACCCGGCCTGCGCTGCGTGCAATGACTGCGGGCG | 6790
TGTTTGCTTGATCCACACGTGTATATAAAAATGTTT | 17200
CTTCTGTAAATTTTTCACGTGACGTGAAGCGCCCCG | 10600
CTTTCCCGATCTTTTCACGTGATATTAGCACATTTG | 12000
AAAGCGGTAATTTGGCTCGTGGGTGCAGATATCTAT | 11100
GGACAGATAGATCGGCACGTGTTGAGCCAGTTGTTC | 19500
CGGATATTCTTTCTTCACGTGCATCTACTGCTTTTT | 14300
TGCGCAACAACTTGTGGCGTGGGTGTATGTCTAGAA | 6790
GCACTTCGCATTAAGCGCGTGAAACTATTGGCTCTC | 4940
GCGCGAACAAACTTGGTCATGACAGCTCCACCGGCA | 2470
TAGTATCAAAGTAGGCATGTGGGTTGATACCAACGA | 11000
CGGGGTTAAGTTTGCGCTGTGGGTGGCTTGCAGCAG | 4360
